Experimental data pooled from the literature.
Lines come from different studies, so protocols differ. Several values in a cell are separate wells, animals, samples, runs or records. ± gives the spread as reported.

Structure (SMILES)	target	test	test system	setting	how to read	measurement	result
CC[C@H](C)[C@H](NC(=O)[C@H](CC(C)C)NC(=O)[C@H](C)NC(=O)[C@H](C)NC(=O)[C@@H]1CCCN1C(=O)[C@@H](NC(=O)[C@H](C)N)C(C)C)C(=O)N[C@@H](CC(C)C)C(=O)N[C@@H](CCCNC(=N)N)C(=O)N[C@@H](CCC(=O)O)C(=O)N[C@@H](CCCCN)C(=O)N[C@@H](CCCCN)C(=O)N[C@@H](CCCCN)C(=O)N[C@@H](CCCCNC(=O)CCCCCNC(=S)Nc1ccc2c(c1)C(=O)OC21c2ccc(O)cc2Oc2cc(O)ccc21)C(N)=O	BIRC2 (human)			concentration not given, 100-fold competition	baseline: no competitor	log2 fold change	4.11
c1ccc(-c2n[nH]cc2-c2ccnc3ccccc23)nc1	TOR1 (Candida albicans)	kinase binding, MIB/MS competition	Candida albicans lysate	1 µM	baseline: DMSO	log2 fold change	-0.37
CCOC(=O)CCc1ccc(N)cc1	HBV core protein Cp149 dimer	solution NMR		4 molar equivalents, pH 7.5, 295 K, average over eight residues	baseline: apo Cp149 dimer	average chemical shift perturbation	0.016 ppm
Cc1cc(NC(=O)C(=O)N2C[C@@H](C)CC[C@@H]2c2ccc3scnc3c2)cnc1N	PRMT5 human	western blot, item: SDMA	HAP1 MTAP-null	24 h		IC50	9 nM
CCCCCCCCCCCCC/C=C/C=O	hippocalcin (human)	IA-probe cysteine labelling, covalent modifier, competitive isoTOP-ABPP	proteome, soluble, MDA-MB-231	100 µM, 60 min, in vitro	baseline: DMSO over compound, higher = stronger blockade	isoTOP-ABPP ratio	1.1
CCCCCCc1ccc2occc2c1	HBV core protein Cp149 dimer	solution NMR		4 molar equivalents, pH 7.5, 295 K, average over eight residues	baseline: apo Cp149 dimer	average chemical shift perturbation	0.016 ppm
Cc1cn(CC(=O)N(CCNC(=O)CN(CCNC(=O)CN(CCNC(=O)CN(CCNC(=O)CN(CCNC(=O)CN(CCNC(=O)CN(CCNC(=O)CN(CCN)C(=O)Cn2cnc3c(=O)[nH]c(N)nc32)C(=O)Cn2cnc3c(N)ncnc32)C(=O)Cn2cc(C)c(=O)[nH]c2=O)C(=O)Cn2cnc3c(=O)[nH]c(N)nc32)C(=O)Cn2cc(C)c(=O)[nH]c2=O)C(=O)Cn2cnc3c(=O)[nH]c(N)nc32)C(=O)Cn2cnc3c(N)ncnc32)CC(=O)NCCN(CC(=O)NCCOCCOCC(N)=O)C(=O)Cn2cnc3c(N)ncnc32)c(=O)[nH]c1=O	complementary DNA	duplex formation, UV melting	PBS	1 µM, pH 7.2		Tm	42 ± 0.73 °C
CCCCCCc1ccc(NC)cc1	HBV core protein Cp149 dimer	solution NMR		4 molar equivalents, pH 7.5, 295 K, average over eight residues	baseline: apo Cp149 dimer	average chemical shift perturbation	0.03 ppm
Cc1ncc(CNc2nc(N3CC(CCOc4cc(-c5scnc5C)ccc4CNC(=O)[C@@H]4C[C@@H](O)CN4C(=O)[C@@H](NC(=O)C4(F)CC4)C(C)(C)C)C3)nc(N3CCC[C@H]3Cn3ccnn3)n2)c(N)n1	BRD9 and VHL-elongin C-elongin B	SPR	immobilized BRD9		baseline: binary KD over ternary KD	cooperativity alpha	4.8
C=CC(=O)Nc1cccc(Cn2ncc3cnc(Nc4cnn(CCOC)c4)nc32)c1	SRPK1 human	binding, KINOMEscan		100 nM	lower = stronger binding	percent of control	11%
CC(=O)NCC1CCCCN1c1nc(NCCn2nnc(C)n2)nc(N2CC3C(CCOc4cc(-c5scnc5C)ccc4CNC(=O)[C@@H]4C[C@@H](O)CN4C(=O)[C@@H](NC(=O)C4(F)CC4)C(C)(C)C)C3C2)n1 (stereo partly shown)	BRD9 and VHL-elongin C-elongin B	SPR	immobilized BRD9		baseline: binary KD over ternary KD	cooperativity alpha	> 26
CCCCCCc1ccc(NCc2ccccc2)cc1	HBV core protein Cp149 dimer	solution NMR		4 molar equivalents, pH 7.5, 295 K, average over eight residues	baseline: apo Cp149 dimer	average chemical shift perturbation	0.014 ppm
O=c1c(-c2ccccc2F)c[nH]c2ccnc(Cl)c12	WDR5				baseline: parent hit compound, negative = stronger binding	binding free energy change	-1.42 kcal/mol
Nc1ccc(Cc2ccccc2)cc1	HBV core protein Cp149 dimer	solution NMR		4 molar equivalents, pH 7.5, 295 K, average over eight residues	baseline: apo Cp149 dimer	average chemical shift perturbation	0.072 ppm
Nc1ncc(-c2cc(-c3cnn(CC(F)(F)F)c3)ncc2F)nc1C(=O)NC1CNCC(F)C1 (stereo not shown)	ULK3	KINOMEscan		1 µM	baseline: DMSO control	remaining binding	94%
C#CCN1CCN(c2nc(N3CCN(c4ccc(Cc5cc(CNC(=O)[C@@H]6C[C@@H](O)CN6C(=O)[C@@H](NC(=O)C6(F)CC6)C(C)(C)C)c(O)cc5-c5scnc5C)cc4)CC3)nc(N3CCN(C(=O)C4CC4)C3)n2)CC1=O	BRD9 and VHL-elongin C-elongin B	SPR	immobilized BRD9		baseline: binary KD over ternary KD	cooperativity alpha	0.26
CCCCCCc1ccc(COC)cc1	HBV core protein Cp149 dimer	solution NMR		4 molar equivalents, pH 7.5, 295 K, average over eight residues	baseline: apo Cp149 dimer	average chemical shift perturbation	0.031 ppm
COc1ccccc1CCN1CNc2c(c(=O)[nH]c(=O)n2-c2cccc(Cl)c2C)C1	P2X7	ATP-evoked current, inhibitor, whole-cell patch clamp		50 µM	baseline: ATP alone	inhibition ratio	1 and 0.95 and 0.94 and 0.99
CC[C@H](C)[C@H](NC(=O)[C@@H]1CCCN1C(=O)[C@@H](NC(=O)[C@H](C)N)C(C)C)C(=O)N[C@@H](C)C(=O)N[C@@H](CCC(N)=O)C(=O)N[C@@H](CCCCN)C(=O)N[C@@H](CO)C(=O)N[C@@H](CCC(=O)O)C(=O)N1CCC[C@H]1C(=O)N[C@@H](Cc1ccccc1)C(=O)N[C@@H](CCCCN)C(=O)N[C@@H](CCCCN)C(=O)N[C@@H](CCCCN)C(=O)N[C@@H](CCCCNC(=O)CCCCCNC(=S)Nc1ccc2c(c1)C(=O)OC21c2ccc(O)cc2Oc2cc(O)ccc21)C(N)=O	BIRC2 (human)			concentration not given, 10-fold competition	baseline: no competitor	log2 fold change	8.81
CCCCCCc1ccc2cc(OC)ccc2c1	HBV core protein Cp149 dimer	solution NMR		4 molar equivalents, pH 7.5, 295 K, average over eight residues	baseline: apo Cp149 dimer	average chemical shift perturbation	0.009 ppm
C=CC(=O)N1[C@@H](c2ccc3c(c2)OCO3)c2[nH]c3ccccc3c2C[C@H]1C(=O)N1CCN(C)CC1	human cyclin E1 N112C-3xFLAG:CDK2	co-IP with TMT proteomics, item: RPSA		concentration not given, P08865	baseline: wild type DMSO	relative co-enrichment	127%
Fc1ccc(Nc2nc(NC3CCCCC3)c3cc(C(F)(F)F)ccc3n2)cc1F	β2AR/β1AR ICL3 chimera	β-arrestin2 recruitment, antagonist, BRET		added: isoprenaline 1 µM		pIC50	6.2
Cc1ncsc1-c1ccc(CNC(=O)[C@@H]2C[C@@H](O)CN2C(=O)[C@@H](NC(=O)C2(F)CC2)C(C)(C)C)c(OCCC2CCN(c3nc(NCC(C)(C)C4(O)CCOC4)nc(N4CCC[C@H]4Cn4ccnn4)n3)CC2)c1 (stereo partly shown)	BRD9 and VHL-elongin C-elongin B	SPR	immobilized BRD9		baseline: binary KD over ternary KD	cooperativity alpha	2.8
Fc1ccc(Nc2nc(NC3CCCCC3)c3cc(Br)ccc3n2)cc1F	β2AR/β1AR ICL3 chimera	β-arrestin2 recruitment, antagonist, BRET			baseline: isoprenaline maximal response	maximal inhibition	0.1%
CCCCCCc1ccc(N)cc1	HBV core protein Cp149 dimer	solution NMR		4 molar equivalents, pH 7.5, 295 K, average over eight residues	baseline: apo Cp149 dimer	average chemical shift perturbation	0.052 ppm

Excerpt of the above:
Structure (SMILES)	target	test	test system	setting	how to read	measurement	result
Cc1cc(NC(=O)C(=O)N2C[C@@H](C)CC[C@@H]2c2ccc3scnc3c2)cnc1N	PRMT5 human	western blot, item: SDMA	HAP1 MTAP-null	24 h		IC50	9 nM
COc1ccccc1CCN1CNc2c(c(=O)[nH]c(=O)n2-c2cccc(Cl)c2C)C1	P2X7	ATP-evoked current, inhibitor, whole-cell patch clamp		50 µM	baseline: ATP alone	inhibition ratio	1 and 0.95 and 0.94 and 0.99
CCCCCCc1ccc(NC)cc1	HBV core protein Cp149 dimer	solution NMR		4 molar equivalents, pH 7.5, 295 K, average over eight residues	baseline: apo Cp149 dimer	average chemical shift perturbation	0.03 ppm
Cc1ncc(CNc2nc(N3CC(CCOc4cc(-c5scnc5C)ccc4CNC(=O)[C@@H]4C[C@@H](O)CN4C(=O)[C@@H](NC(=O)C4(F)CC4)C(C)(C)C)C3)nc(N3CCC[C@H]3Cn3ccnn3)n2)c(N)n1	BRD9 and VHL-elongin C-elongin B	SPR	immobilized BRD9		baseline: binary KD over ternary KD	cooperativity alpha	4.8
